Assay results collected from several papers.
Protocols differ between the studies behind these lines.

`O=C(Nc1nc2cccc(-c3ccc(CN4CCS(=O)(=O)CC4)cc3)n2n1)C1CC1`: “incidence of dizziness” 5.9% (rheumatoid arthritis patients; oral, 30 mg once daily, 4 weeks, TEAE regardless of relatedness).
For `CCO[C@H]1CCN(Cc2c(OC)cc(C)c3[nH]ccc23)[C@H](c2ccc(C(=O)O)cc2)C1`, “incidence of pyrexia” read 0% (PNH patients, active haemolysis; oral, 200 mg, treatment).
`C[C@@H](N)C1CCN(S(=O)(=O)c2cccc3cnccc23)CC1`: “incidence of syncope” 0% (healthy volunteers; oral, 150 mg, single ascending dose, fasted).
Under “incidence of serious adverse events”, `NCCONC(=O)[C@@H]1CC[C@@H]2CN1C(=O)N2OS(=O)(=O)O` is recorded as 0% (healthy Chinese male subjects; intravenous, 1 g).
`NC1(C(=O)N[C@@H](CCO)c2ccc(Cl)cc2)CCN(c2nc[nH]c3nccc2-3)CC1` — result for “incidence of Somnolence”: 0% (metastatic CRPC patients; 480 mg b.i.d., grade 3 to 4, treatment-related, with: enzalutamide 160 mg daily).
Under “incidence of treatment-related AEs”, `C=CC(=O)Nc1cc(Nc2nccc(-c3cn(C)c4ccccc34)n2)c(OC)cc1N(C)CCN(C)C` is recorded as 7% (refers to: neutrophil count decreased; EGFR-mutant MET-altered NSCLC patients; oral, dose not given, AE grade ≥3, all).
`Cc1cc(-c2nnc(N)nc2-c2ccc(F)cc2)cc(Cl)n1` — result for “incidence of treatment-related AE”: 5.9% (refers to: diarrhea, any grade; post-IO NSCLC patients; oral, 100 mg).
`N#CCNC(=O)c1ccc(-c2ccnc(Nc3ccc(N4CCOCC4)cc3)n2)cc1` — result for “incidence of grade 3/4 anaemia”: 7.7% (patients with myelofibrosis; oral, 200 mg, 24 weeks, phase III trials).
Under “incidence of treatment-related AEs”, `C[C@@H](c1ccc2nccn2c1)n1nnc2ncc(-c3cnn(C)c3)nc21` is recorded as 1% (refers to: peripheral oedema; EGFR-mutant MET-altered NSCLC patients; oral, dose not given, AE grade ≥3, all).
`COc1ccc([C@@H](O)c2cc(-c3ncnc4cc(N5CCOCC5)ccc34)c(F)cc2Cl)nn1`: “incidence of proctitis TEAE” 100% (locally advanced rectal cancer; oral, 50 mg, with: capecitabine and radiotherapy).

Excerpt of the above:
`C[C@@H](N)C1CCN(S(=O)(=O)c2cccc3cnccc23)CC1`: “incidence of syncope” 0% (healthy volunteers; oral, 150 mg, single ascending dose, fasted).
For `CCO[C@H]1CCN(Cc2c(OC)cc(C)c3[nH]ccc23)[C@H](c2ccc(C(=O)O)cc2)C1`, “incidence of pyrexia” read 0% (PNH patients, active haemolysis; oral, 200 mg, treatment).
